Results of several laboratories.
Numbered parts are unrelated; each lists some results of a single study.
UniProt Q9UQM7, sequence (whole entry, looked up): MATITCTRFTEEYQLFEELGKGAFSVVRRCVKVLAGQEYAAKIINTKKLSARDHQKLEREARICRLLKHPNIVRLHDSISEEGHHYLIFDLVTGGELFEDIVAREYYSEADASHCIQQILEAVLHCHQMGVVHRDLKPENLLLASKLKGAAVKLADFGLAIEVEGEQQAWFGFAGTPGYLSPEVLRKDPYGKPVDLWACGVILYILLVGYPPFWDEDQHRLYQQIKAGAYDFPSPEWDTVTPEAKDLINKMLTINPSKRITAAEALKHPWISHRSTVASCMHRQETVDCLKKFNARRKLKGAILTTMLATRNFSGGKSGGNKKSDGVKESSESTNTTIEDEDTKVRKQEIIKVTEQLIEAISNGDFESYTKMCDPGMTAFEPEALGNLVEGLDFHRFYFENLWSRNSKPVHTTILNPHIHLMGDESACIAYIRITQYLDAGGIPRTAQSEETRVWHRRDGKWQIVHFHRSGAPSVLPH
UniProt P15056, sequence (whole entry, looked up): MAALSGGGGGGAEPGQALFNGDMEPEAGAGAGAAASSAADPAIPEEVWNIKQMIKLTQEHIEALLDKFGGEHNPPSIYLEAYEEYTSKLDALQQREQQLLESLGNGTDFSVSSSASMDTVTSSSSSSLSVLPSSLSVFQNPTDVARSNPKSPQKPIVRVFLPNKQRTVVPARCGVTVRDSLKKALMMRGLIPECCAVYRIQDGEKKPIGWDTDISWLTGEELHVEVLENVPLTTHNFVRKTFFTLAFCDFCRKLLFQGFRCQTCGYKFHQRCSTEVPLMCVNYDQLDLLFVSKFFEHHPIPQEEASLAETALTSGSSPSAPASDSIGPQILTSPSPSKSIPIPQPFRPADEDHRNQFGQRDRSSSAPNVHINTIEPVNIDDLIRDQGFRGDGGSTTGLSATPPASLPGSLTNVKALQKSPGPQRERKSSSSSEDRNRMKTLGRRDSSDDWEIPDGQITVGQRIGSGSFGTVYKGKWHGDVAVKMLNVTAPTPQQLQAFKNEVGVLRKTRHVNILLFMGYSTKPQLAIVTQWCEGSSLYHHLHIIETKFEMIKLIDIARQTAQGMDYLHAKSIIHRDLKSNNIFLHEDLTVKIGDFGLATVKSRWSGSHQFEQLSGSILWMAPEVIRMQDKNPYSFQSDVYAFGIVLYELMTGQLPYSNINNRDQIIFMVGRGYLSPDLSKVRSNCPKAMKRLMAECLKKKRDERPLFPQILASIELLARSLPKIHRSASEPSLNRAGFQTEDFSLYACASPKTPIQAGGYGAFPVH
UniProt P60842, sequence (whole entry, looked up): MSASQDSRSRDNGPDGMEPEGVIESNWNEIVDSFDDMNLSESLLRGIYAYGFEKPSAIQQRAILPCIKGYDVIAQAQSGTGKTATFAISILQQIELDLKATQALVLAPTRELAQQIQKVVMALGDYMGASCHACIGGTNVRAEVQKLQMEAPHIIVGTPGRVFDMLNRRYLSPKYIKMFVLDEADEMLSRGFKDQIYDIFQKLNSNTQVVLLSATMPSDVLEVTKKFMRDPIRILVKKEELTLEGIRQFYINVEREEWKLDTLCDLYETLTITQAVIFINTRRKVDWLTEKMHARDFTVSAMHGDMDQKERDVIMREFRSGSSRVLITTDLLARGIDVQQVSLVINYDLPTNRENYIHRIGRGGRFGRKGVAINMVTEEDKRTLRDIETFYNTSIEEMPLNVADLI

Block 1
Target: DNA polymerase theta, ATPase domain (POLQ, Homo sapiens, UniProt O75417)
UniProt O75417, sequence (whole entry, unmodified, looked up): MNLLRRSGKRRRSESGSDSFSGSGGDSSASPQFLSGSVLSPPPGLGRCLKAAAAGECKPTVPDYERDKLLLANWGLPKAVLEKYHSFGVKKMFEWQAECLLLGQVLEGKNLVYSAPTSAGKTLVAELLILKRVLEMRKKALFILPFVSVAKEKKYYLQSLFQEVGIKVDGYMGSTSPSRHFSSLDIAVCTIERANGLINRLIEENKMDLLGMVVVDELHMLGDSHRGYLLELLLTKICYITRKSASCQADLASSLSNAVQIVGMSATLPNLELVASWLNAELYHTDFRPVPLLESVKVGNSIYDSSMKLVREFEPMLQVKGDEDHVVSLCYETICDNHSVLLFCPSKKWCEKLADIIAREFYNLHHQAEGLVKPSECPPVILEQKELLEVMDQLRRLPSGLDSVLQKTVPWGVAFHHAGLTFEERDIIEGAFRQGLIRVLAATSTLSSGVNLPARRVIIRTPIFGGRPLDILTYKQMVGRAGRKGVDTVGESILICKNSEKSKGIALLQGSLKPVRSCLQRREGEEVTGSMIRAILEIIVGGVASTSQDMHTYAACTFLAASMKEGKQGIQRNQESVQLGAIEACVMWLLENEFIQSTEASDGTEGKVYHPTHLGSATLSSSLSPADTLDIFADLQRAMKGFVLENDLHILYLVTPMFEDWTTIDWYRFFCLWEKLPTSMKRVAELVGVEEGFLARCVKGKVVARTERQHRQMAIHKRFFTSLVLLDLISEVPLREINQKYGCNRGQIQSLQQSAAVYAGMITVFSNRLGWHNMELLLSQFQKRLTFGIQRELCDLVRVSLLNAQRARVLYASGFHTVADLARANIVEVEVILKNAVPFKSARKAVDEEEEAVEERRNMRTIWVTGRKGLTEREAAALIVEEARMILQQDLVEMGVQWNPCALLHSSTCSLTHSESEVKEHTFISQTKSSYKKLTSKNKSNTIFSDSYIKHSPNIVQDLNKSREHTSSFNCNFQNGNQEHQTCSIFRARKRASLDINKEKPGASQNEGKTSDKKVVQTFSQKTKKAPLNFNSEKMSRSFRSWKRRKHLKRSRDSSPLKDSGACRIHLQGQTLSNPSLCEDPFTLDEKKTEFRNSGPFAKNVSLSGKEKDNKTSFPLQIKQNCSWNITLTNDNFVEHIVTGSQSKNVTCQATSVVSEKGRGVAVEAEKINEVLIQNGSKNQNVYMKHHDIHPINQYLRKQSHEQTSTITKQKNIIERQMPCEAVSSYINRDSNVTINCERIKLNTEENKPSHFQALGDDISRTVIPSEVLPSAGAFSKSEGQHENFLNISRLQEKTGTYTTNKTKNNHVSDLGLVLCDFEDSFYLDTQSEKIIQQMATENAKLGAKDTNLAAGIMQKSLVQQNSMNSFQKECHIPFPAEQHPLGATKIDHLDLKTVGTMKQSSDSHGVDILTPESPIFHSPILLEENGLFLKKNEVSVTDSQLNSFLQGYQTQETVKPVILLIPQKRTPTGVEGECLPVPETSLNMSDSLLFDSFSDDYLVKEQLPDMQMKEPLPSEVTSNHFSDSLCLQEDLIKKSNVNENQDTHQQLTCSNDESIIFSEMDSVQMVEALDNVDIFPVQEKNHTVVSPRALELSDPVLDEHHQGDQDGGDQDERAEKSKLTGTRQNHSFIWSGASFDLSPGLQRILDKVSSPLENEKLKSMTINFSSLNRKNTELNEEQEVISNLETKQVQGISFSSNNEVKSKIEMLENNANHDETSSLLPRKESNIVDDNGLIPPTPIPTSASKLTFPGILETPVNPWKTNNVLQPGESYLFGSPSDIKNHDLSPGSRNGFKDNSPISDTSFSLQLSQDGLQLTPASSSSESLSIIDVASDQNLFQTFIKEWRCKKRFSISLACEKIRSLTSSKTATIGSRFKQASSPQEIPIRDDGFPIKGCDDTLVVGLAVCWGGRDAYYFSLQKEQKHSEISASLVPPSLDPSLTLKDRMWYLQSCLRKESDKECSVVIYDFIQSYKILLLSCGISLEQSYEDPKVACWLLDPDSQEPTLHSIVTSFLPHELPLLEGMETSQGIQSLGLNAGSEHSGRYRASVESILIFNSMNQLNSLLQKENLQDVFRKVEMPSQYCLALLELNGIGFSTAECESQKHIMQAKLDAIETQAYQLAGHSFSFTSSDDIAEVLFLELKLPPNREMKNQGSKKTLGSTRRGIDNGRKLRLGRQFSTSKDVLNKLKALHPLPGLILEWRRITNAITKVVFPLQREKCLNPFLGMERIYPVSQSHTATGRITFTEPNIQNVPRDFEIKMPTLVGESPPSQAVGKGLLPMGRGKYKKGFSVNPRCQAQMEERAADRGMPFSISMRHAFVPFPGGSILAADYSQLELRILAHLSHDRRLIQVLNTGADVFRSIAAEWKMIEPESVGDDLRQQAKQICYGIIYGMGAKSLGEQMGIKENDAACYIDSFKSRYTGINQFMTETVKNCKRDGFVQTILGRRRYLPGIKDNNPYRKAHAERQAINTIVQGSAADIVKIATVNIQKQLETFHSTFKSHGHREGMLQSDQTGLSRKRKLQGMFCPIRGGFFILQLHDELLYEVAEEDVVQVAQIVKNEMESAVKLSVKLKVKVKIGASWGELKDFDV
Effect on: enzyme activity
Mode: inhibitor
Tested at: 77 µM
Baseline: untreated
| Structure (SMILES) | remaining activity [%] |
| --- | --- |
| COC[C@H]1OC(=O)c2coc3c2[C@@]1(C)C1=C(C3=O)C2CCC(=O)[C@@]2(C)C[C@H]1OC(C)=O (stereo partly shown) | 95.9 |
| COc1ccc(CN2CCNCC2)c(OC)c1OC | 98.7 |
| COc1ccccc1N1CCNCC1 | 98.2 |
| O=c1[nH]oc2c1CCNC2 | 98.7 |

Block 2
Host: mouse
Matrix: microsomes or S9
Tested at: 2 µM
Time: 0.5 h
| Structure (SMILES) | remaining compound [%] |
| --- | --- |
| Cc1cc(C#N)cc(C(=O)NCc2ccc3c(c2)OCO3)c1NC(=O)c1cc(Br)nn1-c1ncccc1Cl | 16.6 |
| C/C(NN1CCCCCC1)=C1\C(=O)N(C2CCCCC2)C(=O)N=C1O | 16.8 |
| Cc1nc(Cl)c(Cl)n1Cc1ccc(Cl)nc1 | 28.7 |

Other studies, line by line
| SMILES | target | test | conditions | quantity | value |
| --- | --- | --- | --- | --- | --- |
| O=C(NCc1ncc(C(F)(F)F)cc1Cl)c1ccc2c(c1)C1(CCS(=O)(=O)CC1)[C@@H](C1CC1)N2S(=O)(=O)c1ccc(F)cc1 | BRAF (Homo sapiens, UniProt P15056) | cell-free assay, competition with immobilised ligand | 1 µM | remaining binding | 96% |
| COC(=O)[C@H]1[C@H](c2ccccc2)[C@]2(c3ccc(OC)cc3)Oc3cc(OC)cc(OC)c3[C@@]1(O)C2O (stereo partly shown) | EIF4A1 (Homo sapiens, UniProt P60842) | RNA clamping, fluorescence polarization | concentration not given, mean of two replicates, added: FAM-labelled poly r(AG)8 RNA | fluorescence polarization change | 1.7 mP |
| CC(=O)O[C@@]12CO[C@@H]1C[C@H](O)[C@@]1(C)C(=O)[C@H](O)C3=C(C)[C@@H](OC(=O)[C@H](O)[C@@H](NC(=O)c4ccccc4)c4ccccc4)C[C@@](O)([C@@H](OC(=O)c4ccccc4)[C@H]21)C3(C)C | CAMK2A (Homo sapiens, UniProt Q9UQM7) | enzyme activity, inhibitor | 10 µM | inhibition | 42% |

Some of these lines once more (block 2):
| Structure (SMILES) | remaining compound [%] |
| --- | --- |
| Cc1nc(Cl)c(Cl)n1Cc1ccc(Cl)nc1 | 28.7 |
